Measurements pooled from the literature.
Numbered parts are unrelated; each lists some results of a single study.

Block 1
Target: Phosphate system positive regulatory protein PHO4, full length, GST-tagged (PHO4, Saccharomyces cerevisiae, UniProt P07270, residues 1-312)
Technique: competition protein-binding microarray
Molecule type: double-stranded DNA, one strand shown
Medium: in vitro
Concentration: 2 µM
Setting: whole 60-bp probe, lowest competitor level
Together with: Cbf1 competitor, 0.05 µM
Reading: higher = stronger binding
Measurement: fluorescence intensity
Constant ends, left off below: … GTCTTGATTCGCTTGACGCTGCTG
Residues (chain): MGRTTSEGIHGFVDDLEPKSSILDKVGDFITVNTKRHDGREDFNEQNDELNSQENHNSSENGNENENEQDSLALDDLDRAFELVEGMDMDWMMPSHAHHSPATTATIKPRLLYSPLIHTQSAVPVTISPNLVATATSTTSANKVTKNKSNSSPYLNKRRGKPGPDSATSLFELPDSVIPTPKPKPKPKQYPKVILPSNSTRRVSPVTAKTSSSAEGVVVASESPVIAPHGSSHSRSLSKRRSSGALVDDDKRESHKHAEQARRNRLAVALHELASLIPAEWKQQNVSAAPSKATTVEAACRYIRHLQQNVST
CTAACGAAGGTTTGACAAGTGGGTGACAAGCCAAGT: 3650 a.u.
GTTGCTTGCTAATTGCATGATCAAGTTGGGCCGATG: 3990 a.u.
CAGATGGTTCTCCATCACGTCTCTGATTATGCCTAT: 4630 a.u.
TTATACCACCATTGCCACGTTCACCAAACAATATGT: 13400 a.u.
CAAAGAAAATGCTCCCTCGTGGCCGTCCATCCAGGC: 11100 a.u.
CGGCTCCCGCTCGGCCTCGTGACTCCCGCGGAGACC: 7650 a.u.
CGTCCTAGTGATTGGATTGTGGGTGCCATGAGGAAG: 6800 a.u.
CTTTCCCGATCTTGACGGGTGGGTGTAGCACATTTG: 4810 a.u.
TATGACCGTCCGACCACCGTGACTCGTAACAAAGTC: 4300 a.u.
GCTGTTGAGTTTGCGGACGTGTCGGAGAGCGCGTAG: 4810 a.u.
AAGTGGATTTGCCAGCCCGTGTCTGTTTAGAGATGT: 9800 a.u.
TGGCCAAGGTTGTCTTCCGTGACTCGTACAAGTACA: 3190 a.u.
AAATTACTAAGTTGTCAGGTGGGTGACGCCGTATGA: 4720 a.u.
CATTGCGAGGGTACATCCGTGCAATATTTCTGAAAA: 5040 a.u.
GGTAAAAAGCACAGGCATGTGAATTGCACAGCAGTG: 7400 a.u.
ATCTTCTGGCCGAGTCACGGGCCAAGCGTAAGGGTG: 7490 a.u.

Block 2
Target: Prothrombin, mature alpha-thrombin (F2, Homo sapiens, UniProt P00734)
Technique: aptamer microarray, sandwich
Molecule type: DNA with 2'F-ANA
Medium: in vitro
Concentration: 200 nM
Setting: whole 15-mer aptamer, many near background
Together with: Cy3 exosite-II aptamer, 400 nM
Reading: higher = stronger binding
Measurement: mean fluorescence intensity
Sequence: GGTTGGTGTGGTTGG
2'F-ANA at 1 3 10 11 13 14 15: 227 a.u.
2'F-ANA at 2 3 4 8 14 15: 322 a.u.
2'F-ANA at 1 3 6 8 9 14: 86.4 a.u.
2'F-ANA at 1 3 6 7 8 15: 331 a.u.
2'F-ANA at 1 2 3 6 7 8 10 11 13 14 15: 77.5 a.u.
2'F-ANA at 2 4 6 7 10 11 12 13 15: 89.7 a.u.
2'F-ANA at 1 4 5 6 8 12 13 14: 44.1 a.u.
2'F-ANA at 1 3 5 6 7 8 10 11 12: 58.2 a.u.
2'F-ANA at 2 4 5 8 12 13 14 15: 47.5 a.u.
2'F-ANA at 1 2 5 6 7 9 10: 48.2 a.u.
2'F-ANA at 1 4 5 6 7 8 10 15: 48.4 a.u.
2'F-ANA at 1 2 4 5 7 8 9 11 12 14: 50.1 a.u.
2'F-ANA at 1 3 6 7 8 11 12: 441 a.u.
2'F-ANA at 3 6 15: 892 a.u.
2'F-ANA at 1 2 3 6 11 14 15: 64.6 a.u.
2'F-ANA at 2 4 8 9 10 11 12 15: 103 a.u.

Block 3
Target: RING finger protein unkempt homolog, zinc fingers 1-6, GST-SBP tag (UNK, Homo sapiens, UniProt Q9C0B0, residues 30-357)
Technique: RNA Bind-n-Seq
Molecule type: RNA
Medium: in vitro
Concentration: not given
Setting: RNA with constant flanks, human and mouse sites, ends assumed
Baseline: input RNA pool
Reading: higher = stronger binding
Measurement: bound/input enrichment
Constant ends, left off below: GGGAGUUCUACAGUCCGACGAUC … CAACAGAGGAUUGAGCAUCA
Residues (chain): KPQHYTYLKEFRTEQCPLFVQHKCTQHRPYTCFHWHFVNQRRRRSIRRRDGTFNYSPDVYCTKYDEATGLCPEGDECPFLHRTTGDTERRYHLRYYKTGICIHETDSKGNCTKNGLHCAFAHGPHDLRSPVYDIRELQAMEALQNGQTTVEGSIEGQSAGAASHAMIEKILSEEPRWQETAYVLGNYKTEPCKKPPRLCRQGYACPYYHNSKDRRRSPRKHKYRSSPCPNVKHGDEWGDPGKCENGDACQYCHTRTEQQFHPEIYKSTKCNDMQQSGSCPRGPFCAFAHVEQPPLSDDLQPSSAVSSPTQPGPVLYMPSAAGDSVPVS
CACCUGGGCGUAUUCACGCUGGGCGCCAGGGCCGACAGCUACUAUGAGUACCUGCUGAAGCAGUGGAUCCAGGGCGGGAAGCAGGAGACACAGCUGCUGGAAGACUACGUGGAAGCCAUC: 0.148 ratio
AGAGAAGAGUUGGUUGAUCGUGUUUUUGAUGAAAGUCUCAACUUCCGAAAGAUACCUCCAUUAGUUCAUUCUAAAACACCAGAAGGAAACAACGGUCGGUCUGUUGACUCGAGGCCUCAG: 0.158 ratio
UUGCCUAGCUUUACGAAUAUUGCUUUGUUUUCUGUUUAUGCAUAGCCUUGAUUUGUUUGACUCCCCUCCCCCCAUUUACAUGCAUGCAAUCAGACAGGCCACUAAGGUAAAAGAGUCUGC: 0.908 ratio
CAUGCCCUCAGCUGUGGUCAGGUGACUUCCUGUCCCCUGGCAGCUCUGCUGAGUCCCUGUGUUUGAGCCUCCAGGGAGAAGGGUUUGGGCUGCAUUCUUCUUAUCCCCAUGCACAGAAAC: 0.11 ratio
GCCUACACCUGAGUCCAGGCAUCCAGCCAGGGCUCCAGCUCGAGGUGACAUGGAGGACAGGAGGCCCCCAGGGCAGAAGCCAGGCCCUGACCUCACCUCUGCUCCUGGGAGAGGAAGCCA: 0.0528 ratio
GCUGAAGGGUAUGUGAUUGGCAGCUGUAUUAAACACAUUCCAAUCGCAGGACGAGAUAUAACAUAUUUUAUUCAGCAACUGCUGAGAGACCGAGAAGUAGGAAUCCCUCCAGAACAAUCC: 0.128 ratio
GCCACUCCAUUCAGUUCCAAGUCCAGUACCAAGCCUGCAGCCGGGGGCACAGCACCCCUGCCUCCUUGGAAGUCCCCUUCCAGCUCCCAGCCUCUGCCCCAGGUUCCGGCUCCGGCUCAG: 0.279 ratio
ACAGUUAUAUUGUUGAGUUUCAUUUUCAUAUAUUCUUGUAGUGUCUGCUUGCCUGUGACUUCUGGUAAAAUAAAAUAAGCCUUUGAAAAUAUUUUAGCAUGGUAUUUAACAUUUUCUAAA: 1.77 ratio
AACAUAAAGCAGGACGACCCCUUUGAACUCUUCAUAGCAGCCACAAACAUUCGCUACUGCUACUACAACGAGACCCACAAGAUCCUGGGCAAUACCUUCGGCAUGUGUGUGCUGCAGGAU: 0.154 ratio
GCGACCCCCAGCCUGCUGGGCAGGUAAACCAGCCAAAACUAUUCCCUGAAUGAAAACACCUUUUUUUAAAGUUGCAUAUAUACACAAGAAAAAACCGAAAUGCUUUUUAUUUUGCCUGAA: 0.253 ratio
GAAAAAGUGUAGCUCAGACCUGUUUUUAUUUGCUCAAUAACUCGACUCAUUUGUAUCUUUUCAGCACUUGAUGUAAGACUGUUUUGUUUUUAUAAAAUACAUGGGGACAAUGCUUUAAGU: 0.282 ratio

Block 4
Target: RNA binding protein fox-1 homolog 2, RRM domain, GST-SBP tag (RBFOX2, Homo sapiens, UniProt O43251-10, residues 100-194)
Technique: RNA Bind-n-Seq
Molecule type: RNA
Medium: in vitro
Concentration: 365 nM
Setting: natural RNA segment, single round, ends assumed
Baseline: no-protein control
Reading: higher = stronger binding
Measurement: RBNS enrichment (R)
Constant ends, left off below: GGGAGUUCUACAGUCCGACGAUC … UGGAAUUCUCGGGUGCCAA
Target sequence (chain): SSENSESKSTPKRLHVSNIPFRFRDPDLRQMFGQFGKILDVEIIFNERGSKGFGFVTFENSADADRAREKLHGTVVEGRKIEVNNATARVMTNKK
AACUUGUUUGCCAACCAAUAAACAACUGAUUGAGAUUUAGAAGAUAUUGUAUUGAUGUAUGUACUAUAUGAUUAAUCAGUCUUUUUAUUUUUCUCGCCUUUCUUUCUUUC: 0.922
CAGAACUGAAGAUGGAAUGGCCUGACCAGCUAUUAAGAACGUGGGGAGACGCAGAAAUUGUGGUAAAAUUCCUUAAUGUUUAAGGGAAAGUAACUUUAAGAGAUUUUUGG: 0.533
GUGUUUGUUUCAUGUGCCUGAAUAUCUUAAGCCACUUUCUGCAAAAGCUGUUUCUUACAGAUGAAGUGCUUUCUUUGAAAGGUGGUUAUUUAGGUUUUAGAUGUUUAAUA: 0.784
UGUUCUUUGUCAUAGGGGUGAAAAACUAACUUCAAGUGUCCCUUGUUUGAAAUAAACUUAGCAGAGUACUUUCUAUCUUAUUUGUUUGUUCACUGUGUGUUUGACUGUAU: 0.485
AUGUUUUCAGUUGGUUUGUAUUCUGUAGCUCAGUAGCUGCUAAUAAAGUUAAAGAUCCUGUGUCCUGCUUUCUCUACUGUUUGGUCAGAUGAUGAAGUAUAAAUCUGGAU: 0.392
AGUACAGACUUUUUUUUUUUUUUAAACAAAAAAAGCAUUGUAACUUAUGAACCUUUACAUCCAGAUAGGUUACCAGUAACGGAACAGUAUCCAGUACUCCUGGUUCCUAG: 0.288
CCCAGUGUCAUCAACAGUGAGCAAAUCUGGCAUGGUGUUUGUCUCGUACAGUUGGGAUAGGAGGCCAUUCAUUCCCAUGGGCACAGCUAACAUUAUCCCCCAGUGAUUAC: 10.4
UUGGGAGCUAUUGAGCCACCUGGGAUGAGAUGACACAAGGCACUCCUACCACUGAGCGCCUUUGCCAGGUCCAGCCUGGGCUCAGGUUCCAAGACUCAGCUGCCUAAUCC: 0.331
GCAGGGGCAAGUGUACAAUGGGGCCUAGUCCCCAGCAGGCGGCUGGGAGGCCGCCACUGAGCAUCUCUAUUUGUCAUUCCUUUAGCUAUUUAGGGACCAAAGGACCAAAC: 0.266
AUGUAUAAAGAAAUUAUUCUUCAUUCCAAUAUAUGAAGAUACUUGCCUUUUCAGCAGCGAUGGUCUCAGUGUGCUUGGGGCAGGAGUACAUAGUUUCUAUGAGCGAUAUA: 0.346
GAAUGAGUUCUCUGUUGUGCCCCCACUGCAGCUGUCUCUUGUGCUCUCCAGGUAUGCAGCUCAUAUGCUUGUGUCUGGACUUCCAUUUUCUUACUUCAGGGAGGGGACAG: 1.56
CCACAUUAGAGGCUGGGAACAGCCAGGAUGUUGCCAAAGCCCCUGGCCUUUCCUGUACACGCCUGUGACUGGCAGCCACAUGGUUUCUGCUUAUUAACGUGAGCCUCCCU: 0.322

Block 5
Target: Histone acetyltransferase KAT6A, both winged helices, GST fusion (KAT6A, Homo sapiens, UniProt Q92794, residues 1-181)
Technique: protein binding microarray
Molecule type: double-stranded DNA, one strand shown
Medium: in vitro
Concentration: not given
Setting: 8-mer, flanks averaged, mean of 2 arrays, mostly near background
Baseline: not given
Reading: higher = stronger binding
Measurement: E-score
Residues (chain): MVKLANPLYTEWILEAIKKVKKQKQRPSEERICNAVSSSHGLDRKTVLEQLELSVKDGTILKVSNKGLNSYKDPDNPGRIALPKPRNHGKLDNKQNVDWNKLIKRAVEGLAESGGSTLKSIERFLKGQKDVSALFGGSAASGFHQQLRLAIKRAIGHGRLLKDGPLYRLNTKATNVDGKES
AACTGGAT: -0.0922
GATACGTA: 0.0223
ATGGATAA: -0.0253
GTATACAA: 0.0184
CTTGTTGA: -0.0481
GTTACACA: -0.0323
GAAGTCGA: -0.113
AAGCCGGT: 0.261
ATAGAGCA: -0.176
CGCTCGTA: 0.153
AAGACTCC: -0.0631
AACCAATT: -0.105
CCCCATAG: -0.241
CTGCGAAG: -0.0634
CTCCTTGA: -0.0769
AAATTGCT: -0.0896
GACATGGC: -0.118
CGGCTGGA: 0.137
ACCGTCTG: 0.151
CGAGATGA: 0.0599
CTCCTTTA: -0.0581

Block 6
Target: Eukaryotic initiation factor 4A-I (EIF4A1, Homo sapiens, UniProt P60842, residues 1-406, full length assumed)
UniProt P60842, sequence (whole entry, looked up): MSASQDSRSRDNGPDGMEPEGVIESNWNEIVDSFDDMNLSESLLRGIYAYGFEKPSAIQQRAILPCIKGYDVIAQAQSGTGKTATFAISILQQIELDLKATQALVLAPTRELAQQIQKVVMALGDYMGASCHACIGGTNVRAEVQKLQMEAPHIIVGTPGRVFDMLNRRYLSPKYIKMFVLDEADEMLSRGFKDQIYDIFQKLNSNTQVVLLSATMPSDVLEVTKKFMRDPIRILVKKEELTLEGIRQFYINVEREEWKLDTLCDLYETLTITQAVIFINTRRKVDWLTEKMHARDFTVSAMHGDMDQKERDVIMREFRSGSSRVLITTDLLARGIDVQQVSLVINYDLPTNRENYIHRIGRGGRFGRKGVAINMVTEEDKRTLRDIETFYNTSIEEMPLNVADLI
Technique: RNA Bind-n-Seq
Molecule type: RNA
Medium: in vitro
Concentration: 15 pmol
Setting: 4-mer, random 30-nt RNA, single round
Together with: 3 µM DMDA-PatA, 2 mM AMP-PNP
Baseline: input library
Reading: higher = stronger binding
Measurement: 4-mer enrichment
AUAG: 1.29 fold
AUUU: 1.06 fold
AUCC: 0.521 fold
CAAA: 0.579 fold
UCGG: 1.27 fold
AGGU: 1.36 fold
CAGC: 0.465 fold
AGUA: 1.27 fold
AAUU: 1.16 fold
GUGC: 1.28 fold
ACCU: 0.652 fold
GGGU: 1.52 fold
AAGG: 1.09 fold
CGGG: 1.65 fold

Repeated from above (block 2):
2'F-ANA at 1 2 4 5 7 8 9 11 12 14: 50.1 a.u.
2'F-ANA at 1 3 6 7 8 15: 331 a.u.
2'F-ANA at 2 3 4 8 14 15: 322 a.u.
2'F-ANA at 1 4 5 6 7 8 10 15: 48.4 a.u.
2'F-ANA at 2 4 5 8 12 13 14 15: 47.5 a.u.
